Published values from different studies.
A part holds a random share of what one study measured. Changes are numbered by the printed parent chain.
Sequence of UniProt Q9C0B0 (30-357, looked up): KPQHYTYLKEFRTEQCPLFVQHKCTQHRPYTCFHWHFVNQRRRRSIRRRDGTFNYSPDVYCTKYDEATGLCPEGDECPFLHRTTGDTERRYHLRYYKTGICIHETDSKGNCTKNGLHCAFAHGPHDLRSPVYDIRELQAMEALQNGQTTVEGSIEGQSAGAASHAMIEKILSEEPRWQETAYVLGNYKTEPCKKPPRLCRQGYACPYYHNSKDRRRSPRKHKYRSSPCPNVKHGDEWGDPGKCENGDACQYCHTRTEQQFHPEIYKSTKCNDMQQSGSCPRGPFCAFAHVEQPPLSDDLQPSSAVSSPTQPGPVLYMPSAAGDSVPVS

Sample 1
Target: Sal-like protein 4, full length isoform B (SALL4, Homo sapiens, UniProt Q9UJQ4-2, residues 1-616)
Method: universal PBM
Molecule type: double-stranded DNA, one strand shown
Medium: in vitro
Concentration: not given
Notes: 8-mer, flanks averaged, mean of replicates
Reading: higher = stronger binding
Quantity: E-score
Construct (chain): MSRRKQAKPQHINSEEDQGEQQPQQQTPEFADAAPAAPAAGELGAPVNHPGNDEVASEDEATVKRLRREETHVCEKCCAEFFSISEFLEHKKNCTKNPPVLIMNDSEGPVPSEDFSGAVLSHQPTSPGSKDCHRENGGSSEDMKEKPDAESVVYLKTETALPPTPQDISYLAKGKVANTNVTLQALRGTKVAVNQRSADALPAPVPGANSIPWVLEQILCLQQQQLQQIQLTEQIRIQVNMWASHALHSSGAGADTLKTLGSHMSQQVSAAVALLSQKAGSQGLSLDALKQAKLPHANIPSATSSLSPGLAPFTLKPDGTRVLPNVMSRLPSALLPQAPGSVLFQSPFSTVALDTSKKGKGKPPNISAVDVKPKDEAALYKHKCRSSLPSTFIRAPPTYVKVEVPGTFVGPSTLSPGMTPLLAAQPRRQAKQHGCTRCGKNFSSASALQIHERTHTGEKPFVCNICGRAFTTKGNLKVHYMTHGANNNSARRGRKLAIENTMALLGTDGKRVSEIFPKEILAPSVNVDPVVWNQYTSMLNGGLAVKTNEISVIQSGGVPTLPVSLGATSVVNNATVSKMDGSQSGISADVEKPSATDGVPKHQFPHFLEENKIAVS
AATAGCGC: 0.115
CACGATTC: 0.0187
CCGATTTA: 0.119
AGCCCAAT: -0.00442
AGCAAATG: 0.00829
CGACAGGA: 0.0102
GACAATTA: 0.318
AAGGCCCG: -0.379
AAAAAGGG: 0.0856
AAATGACC: 0.0532
CATCTAGC: -0.0223
CTAGTCGA: 0.0439
CCGCGTAC: -0.182
AGCGTAAC: 0.129
CCATCCCG: -0.276
ACGCTGTA: -0.00645
CGATGAGC: -0.228
CACTGTAC: -0.125
ACTCCTAC: -0.0376
AACTCTCT: -0.0472
GGGTGGAC: -0.287
ACCAGTCG: -0.0804
GCATTTGA: 0.0889

Sample 2
Target: CCND3, cyclin fold, Cln2 fusion (human)
Method: yeast growth competition, sequencing
Medium: yeast
Notes: weak parent motif
Baseline: not given
Reading: higher = stronger binding
Quantity: normalised enrichment score
Parent: SCAPER docking peptide (human); SNARRSLNFGGST; partner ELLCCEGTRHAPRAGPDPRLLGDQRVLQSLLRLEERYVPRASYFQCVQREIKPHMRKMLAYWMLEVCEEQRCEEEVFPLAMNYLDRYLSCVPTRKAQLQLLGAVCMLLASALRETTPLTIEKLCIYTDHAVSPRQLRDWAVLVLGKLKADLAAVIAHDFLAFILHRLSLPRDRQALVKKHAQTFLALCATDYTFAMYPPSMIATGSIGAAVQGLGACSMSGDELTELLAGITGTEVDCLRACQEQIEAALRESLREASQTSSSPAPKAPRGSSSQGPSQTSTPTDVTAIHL
R4G: 0.103
S1P: 0.0834
R5Y: 0.0851
N8W: 0.158
N8D: 0.116
S12E: 0.226
N8E: 0.179
A3I: 0.229
S1Y: 0.162
A3Y: 0.0562
S6F: 0.196
T13K: 0.152
G10H: 0.133
N2T: 0.185
G11L: 0.125
G11P: 0.0838
G11M: 0.153
S6W: 0.183

Sample 3
Target: Interferon regulatory factor 7, full length, phosphomimetic (IRF7, Homo sapiens, UniProt Q92985, residues 1-503, S471D/S472D/S475D/S476D/S477D/S483D/S484D/S487D)
Sequence of UniProt Q92985 (whole entry, unmodified, looked up): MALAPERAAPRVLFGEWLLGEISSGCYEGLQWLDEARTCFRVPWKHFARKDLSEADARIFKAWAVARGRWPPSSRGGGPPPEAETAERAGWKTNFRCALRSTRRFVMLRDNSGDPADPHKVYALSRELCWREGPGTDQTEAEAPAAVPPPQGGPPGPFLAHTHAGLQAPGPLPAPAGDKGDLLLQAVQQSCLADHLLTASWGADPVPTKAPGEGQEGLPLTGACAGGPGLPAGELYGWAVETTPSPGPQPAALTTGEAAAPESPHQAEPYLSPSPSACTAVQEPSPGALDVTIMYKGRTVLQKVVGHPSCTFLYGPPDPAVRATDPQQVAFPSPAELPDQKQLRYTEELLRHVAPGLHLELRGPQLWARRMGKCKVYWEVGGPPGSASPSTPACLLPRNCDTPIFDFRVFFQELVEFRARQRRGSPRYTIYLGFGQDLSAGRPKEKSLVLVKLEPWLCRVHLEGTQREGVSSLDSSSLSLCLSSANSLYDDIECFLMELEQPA
Method: protein-binding microarray
Molecule type: double-stranded DNA, one strand shown
Medium: in vitro
Concentration: 2200 nM top
Notes: 60-bp whole probe
Together with: salmon DNA 0.4 mg/ml
Baseline: random background probes
Reading: higher = stronger binding
Quantity: fitted relative affinity
Shared flanks, not repeated: GCCTAGCAC … GTCTTGATTCGCTTGACGCTGCTG
GACGATCTCACTATCGAGACGTGCTAG: 0.67 z-score
TCATCTCTACTTGTGTCACTGTGCTAG: 1.59 z-score
CTTGCTTCCTAATTCTCTTTGTGCTAG: 2.06 z-score
TCATGTTTCCTTCCTCTACTGTGCTAG: 3.76 z-score
TTAGGTTCCCTTTTCGTTTAGTGCTAG: 4.48 z-score
GACGGTATCCGGACTGGGGACGTGCTA: -0.475 z-score
GGGCATTTAGAAAATGGAAATGTGCTA: -0.955 z-score
GTAGGTTTCGGGTTTCGGTTAGTGCTA: 10.6 z-score
TTAGATATCGGGTCTGGATTAGTGCTA: 0.0395 z-score
GACGAACTGGGGTCTCGAGACGTGCTA: -0.0157 z-score
GACGAAGTGAGTCTCGAGACGTGCTAG: 0.0643 z-score
GACGGACTGGGTATCCGGACGTGCTAG: -0.828 z-score
TTAGGTATGGGACTGGGTTAGTGCTAG: -0.213 z-score
CTCCCTTTCTCTCTGTGACAGTGCTAG: 3.33 z-score
TTAGGTATCGGGTATCGGTTGGTGCTA: 0.861 z-score
TCAGTTTGCCCTATTTAACTGTGCTAG: 2.36 z-score
TTAGGACTGATTCTCCTTTAGTGCTAG: 0.337 z-score
CTTTCTTTATGCACTCTCTACGTGCTA: 2.19 z-score

Sample 4
Target: Prothrombin, mature alpha-thrombin (F2, Homo sapiens, UniProt P00734)
Method: aptamer microarray, sandwich
Molecule type: DNA with 2'F-ANA
Medium: in vitro
Concentration: 200 nM
Notes: whole 15-mer aptamer, many near background
Together with: Cy3 exosite-II aptamer, 400 nM
Reading: higher = stronger binding
Quantity: mean fluorescence intensity
Strand: GGTTGGTGTGGTTGG
2'F-ANA at 1 3 5 6 9 10 11: 52.5 a.u.
2'F-ANA at 1 3 6 11 12 15: 408 a.u.
2'F-ANA at 2 5 6 8 11 12 13: 109 a.u.
2'F-ANA at 2 11 12 13 14 15: 149 a.u.
2'F-ANA at 2 5 7 8 9 12 14 15: 70.7 a.u.
2'F-ANA at 1 3 4 5 6 8 12 14: 49.4 a.u.
2'F-ANA at 1 3 5 6 9 10 11 13 14: 83.8 a.u.
2'F-ANA at 2 6 8 9 11 12 14 15: 143 a.u.
2'F-ANA at 3 4 5 6 11 12 15: 143 a.u.
2'F-ANA at 1 2 3 4 6 7 8 11 12 13: 202 a.u.
2'F-ANA at 3 4 8 12 14 15: 454 a.u.
2'F-ANA at 1 2 5 7 10 11 12 13 14: 47.2 a.u.
2'F-ANA at 5 6 7 8 11 15: 99.5 a.u.
2'F-ANA at 1 3 4 6 7 12 13 14 15: 77.6 a.u.
2'F-ANA at 3 8 9 13 15: 901 a.u.
2'F-ANA at 1 3 6 9 10 11 14: 110 a.u.
2'F-ANA at 1 5 6 7 9 10 11 14: 46.6 a.u.
2'F-ANA at 1 5 10 12 13: 47.3 a.u.
2'F-ANA at 2 3 5 9 10 11 12 13 15: 60.1 a.u.
2'F-ANA at 1 3 5 7 8 12: 140 a.u.
2'F-ANA at 2 3 8 9 10 11 12 13: 378 a.u.
2'F-ANA at 2 3 4 6 7 8 11 14: 260 a.u.
2'F-ANA at 1 2 4 8 10 11 14: 47.9 a.u.
2'F-ANA at 3 5 6 8 9 11 12 13 14 15: 59.6 a.u.
2'F-ANA at 1 2 3 6 7 10 11 14 15: 53.9 a.u.

Further values, each from its own experiment
GGGAGUUCUACAGUCCGACGAUCUAUAAGAACUCUUGCAGUCUCCGAUGUUAUAAAAAUAUAUAUCUGAAUUGUAAGAGUUGUCCGCACAAGUUUUUUUUUUUUUUUUUUUUAAGCACUUGUUUUGGGUACAAGGCAUUUCUGCAACAGAGGAUUGAGCAUCA  bound/input enrichment (RING finger protein unkempt homolog, zinc fingers 1-6, SBP tag (UNK, Homo sapiens, UniProt Q9C0B0, residues 30-357); RNA Bind-n-Seq; RNA, in vitro; 100 nM, RNA with constant flanks, ends assumed; baseline: input RNA pool, higher = stronger binding): 0.822 ratio

Some of these lines once more (sample 1):
CCGATTTA: 0.119
AGCCCAAT: -0.00442
AGCAAATG: 0.00829
CGACAGGA: 0.0102
GACAATTA: 0.318
AAGGCCCG: -0.379
AAAAAGGG: 0.0856
AAATGACC: 0.0532
CATCTAGC: -0.0223
CTAGTCGA: 0.0439
CCGCGTAC: -0.182
AGCGTAAC: 0.129
CCATCCCG: -0.276
ACGCTGTA: -0.00645
